Measured values collected from several papers.
Each line is one published result; not all experiments were run side by side. ± marks the error that the study gave.
TDP1: Tyrosyl-DNA phosphodiesterase 1 (TDP1, Homo sapiens, UniProt Q9NUW8)
Chain of UniProt Q9NUW8 (whole entry, looked up): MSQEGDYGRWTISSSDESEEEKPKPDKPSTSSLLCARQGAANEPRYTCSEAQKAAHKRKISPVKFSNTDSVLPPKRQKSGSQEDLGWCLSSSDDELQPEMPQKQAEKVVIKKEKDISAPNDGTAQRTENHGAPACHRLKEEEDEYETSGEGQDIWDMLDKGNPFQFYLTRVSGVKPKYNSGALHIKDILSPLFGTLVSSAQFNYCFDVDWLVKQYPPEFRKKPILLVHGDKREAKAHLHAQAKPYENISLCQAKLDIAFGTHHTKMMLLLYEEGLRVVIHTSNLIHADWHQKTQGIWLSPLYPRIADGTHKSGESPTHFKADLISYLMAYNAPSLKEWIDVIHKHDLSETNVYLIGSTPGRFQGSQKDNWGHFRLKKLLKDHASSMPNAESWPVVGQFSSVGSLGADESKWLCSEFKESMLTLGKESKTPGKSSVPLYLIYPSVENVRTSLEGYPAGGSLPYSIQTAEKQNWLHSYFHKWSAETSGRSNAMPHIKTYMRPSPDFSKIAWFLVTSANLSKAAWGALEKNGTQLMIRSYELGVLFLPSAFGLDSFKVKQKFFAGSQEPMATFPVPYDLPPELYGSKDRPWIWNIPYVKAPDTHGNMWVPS

`CCN(CC)CC(=O)Nc1cccc(-n2cc(-c3ccc4ccc(-c5cn(-c6cccc(NC(=O)CN(CC)CC)c6)nn5)cc4c3)nn2)c1` gave a fold regulation of -1.01 (RCC4; PCR array, refers to: ENG; 5 x IC50, 6 h, normoxia; relative to: untreated).
For `CCOc1ccc(-c2nnc3n2N=C(c2cc(OC)ccc2OC)CS3)cc1`, the IC50 was 317 µM (Uncharacterized protein (Trypanosoma brucei brucei, UniProt Q386Q8); inhibitor, coupled colorimetric; Trypanosoma brucei).
`CO[C@@H]1OC[C@@H](O)[C@H](O)[C@H]1O` gave an inhibition of 0% (Helicobacter pylori; microbial growth, broth dilution; 1.95 µg/mL).
`N#CCn1cc(C=NOCc2ccc(-c3nc4cc(-c5ccccc5)ccn4c3Nc3ccc(C(=O)O)cc3)cc2)c2ccccc21` gave an inhibition of 90.8% (TDP1; enzyme activity, inhibitor; 100 µM, unpurified compound).
The remaining binding of `Nc1ncc(-c2cc(-c3cnn(CC(F)(F)F)c3)ncc2F)nc1C(=O)NC1CNCC(F)C1` (stereo not drawn) is reported as 48% (CLK4; KINOMEscan; 1 µM; relative to: DMSO control).
With `CC=C(C)C(=O)OC1CC2C(C=C(C)C3C(OC(C)=O)CC(=O)C13C)OC(=O)C2C` (stereo not drawn) the inhibition was 0% (Helicobacter pylori; microbial growth, broth dilution; 125 µg/mL).
`CCC(=O)N(C)c1ccc(Cl)c(Cl)c1` has an inhibition of less than 10% (SKCa potassium channel; radioligand binding; 10 µM).
For `C=CC(=O)Nc1cccc(Cn2ncc3cnc(Nc4cnn(CCOC)c4)nc32)c1`, “percent of control” read 94% (EPHB4 human; binding, KINOMEscan; 100 nM; lower = stronger binding).
For `CN1CCCNC(=O)c2cccc(c2)C(=O)NCCCN(C)CCCNc2cccc3c2C(=O)c2cccc(c2C3=O)NCCC1`, “log2 fold change” read -0.578 (SAS; RNA-Seq, refers to: CDC27 mRNA; 1 µM, 6 h; relative to: untreated cells).
The IC50 of `CNS(=O)(=O)Nc1nccc(Cc2c(C)c3ccc(Oc4ncccc4F)cc3oc2=O)c1F` is reported as 0.0717 µM (143B; cell viability; 7 days).
The inhibition of `COc1cc(C=NOCc2ccc(-c3nc4cc(-c5ccccc5)ccn4c3Nc3ccc(C(=O)O)cc3)cc2)ccc1F` (mixture of isomers) is reported as 23.7% (TDP1; enzyme activity, inhibitor; 100 µM, unpurified compound).
`C=C(NC(=O)c1csc(-c2nc3c(cc2O)-c2nc(cs2)C(=O)NC(C(C)O)C(=O)NC(=C(C)OC)c2nc(cs2)C(=O)NC2c4nc(cs4)C(=O)NC(COC(=O)c4c5c6c(cccc6n4O)COC(=O)C(OC4CC(C)(O)C(N(C)C)C(C)O4)C2OC5)c2nc-3cs2)n1)C(N)=O` (stereo not drawn) — result for “lung bacterial load”: 5.54 log10 CFU/lung (Streptococcus pneumoniae; -4, immunocompromised mice, lung; 4 mg/kg/day thrice daily, 24 h post-dose).
For `Cn1ncc2cc(-c3cncc(Cl)c3N3CCC4(CCNC4=O)CC3)ccc21`, “log2 fold change” read 1.13 (LS174T; gene expression, microarray, refers to: PTPRZ1 mRNA; concentration not given, 4 h; relative to: untreated cells).
With `COc1cc(O)ccc1CCC(c1ccc(O)cc1)c1cc2c(c(C)c1O)OC(c1ccc(O)cc1)CC2` (mixture of isomers) the 12-HETE level was 6510 ± 2500 pg/mL (human blood; 0.3 µM, added: A23187).
For `C/C=C(/C)C(=O)O[C@@H]1C=C(C)CC[C@]2(O)[C@@H](C(C)C)CC(=O)[C@]12C`, the inhibition was 0% (Helicobacter pylori; microbial growth, broth dilution; 0.24 µg/mL).
Under “log2 fold change”, `c1ccc(-c2n[nH]cc2-c2ccnc3ccccc23)nc1` is recorded as -0.1 (IKS1 (Candida albicans); kinase binding, MIB/MS competition; Candida albicans lysate; 1 µM; relative to: DMSO).
`CC(C)(C)NCC(SS(=O)(=O)O)c1ccccc1` (stereo not drawn): “female worm burden reduction” 83% (Schistosoma mansoni; infected mice; 100 mg/kg single, day 42, perfusion day 56; relative to: vehicle).
`Cc1ncsc1-c1ccc(C(C)NC(=O)C2CC(O)CN2C(=O)C(NC(=O)CCCCCCCCCCN2CCCC(Nc3ncc(Cl)c(Nc4ccccc4S(=O)(=O)C(C)C)n3)C2)C(C)(C)C)cc1` (stereo not drawn) — result for “log2 fold change”: -1.38 (22Rv1; RNA-seq, refers to: TBC1D31 mRNA; concentration not given; relative to: DMSO).
With `C=CC(=O)N1[C@@H](c2ccc3c(c2)OCO3)c2[nH]c3ccccc3c2C[C@H]1C(=O)N1CCN(C)CC1` the relative co-enrichment was 125% (human cyclin E1 N112C-3xFLAG:CDK2; co-IP with TMT proteomics, refers to: DHX9; concentration not given, Q08211; relative to: wild type DMSO).
`COCC1CN(C2CCN(c3cc(OC)c(Nc4ncc(Br)c(Nc5ccc6c(c5P(C)(C)=O)OCCO6)n4)cc3C)CC2)C1` has a progressive disease of 100% (RECIST 1.1; advanced EGFR-mutant NSCLC patients; 60 mg once daily).
`COC1CN([C@H]2CC[C@H]([C@@]3(C)Oc4c(Cl)cc(C(=O)NCc5c(SC)cc(C)[nH]c5=O)c(C)c4O3)CC2)C1` — result for “log2 fold change”: 0.882 (RNA-seq, refers to: SRCIN1 mouse homolog; mouse, HT-1376 xenograft, whole blood; dose not given; relative to: vehicle).

Repeated from above:
With `CC=C(C)C(=O)OC1CC2C(C=C(C)C3C(OC(C)=O)CC(=O)C13C)OC(=O)C2C` (stereo not drawn) the inhibition was 0% (Helicobacter pylori; microbial growth, broth dilution; 125 µg/mL).
With `C=CC(=O)N1[C@@H](c2ccc3c(c2)OCO3)c2[nH]c3ccccc3c2C[C@H]1C(=O)N1CCN(C)CC1` the relative co-enrichment was 125% (human cyclin E1 N112C-3xFLAG:CDK2; co-IP with TMT proteomics, refers to: DHX9; concentration not given, Q08211; relative to: wild type DMSO).
